Measured values from different studies.
Parts stem from different laboratories: compare values within a part only.
UniProt P57078, sequence (whole entry, looked up): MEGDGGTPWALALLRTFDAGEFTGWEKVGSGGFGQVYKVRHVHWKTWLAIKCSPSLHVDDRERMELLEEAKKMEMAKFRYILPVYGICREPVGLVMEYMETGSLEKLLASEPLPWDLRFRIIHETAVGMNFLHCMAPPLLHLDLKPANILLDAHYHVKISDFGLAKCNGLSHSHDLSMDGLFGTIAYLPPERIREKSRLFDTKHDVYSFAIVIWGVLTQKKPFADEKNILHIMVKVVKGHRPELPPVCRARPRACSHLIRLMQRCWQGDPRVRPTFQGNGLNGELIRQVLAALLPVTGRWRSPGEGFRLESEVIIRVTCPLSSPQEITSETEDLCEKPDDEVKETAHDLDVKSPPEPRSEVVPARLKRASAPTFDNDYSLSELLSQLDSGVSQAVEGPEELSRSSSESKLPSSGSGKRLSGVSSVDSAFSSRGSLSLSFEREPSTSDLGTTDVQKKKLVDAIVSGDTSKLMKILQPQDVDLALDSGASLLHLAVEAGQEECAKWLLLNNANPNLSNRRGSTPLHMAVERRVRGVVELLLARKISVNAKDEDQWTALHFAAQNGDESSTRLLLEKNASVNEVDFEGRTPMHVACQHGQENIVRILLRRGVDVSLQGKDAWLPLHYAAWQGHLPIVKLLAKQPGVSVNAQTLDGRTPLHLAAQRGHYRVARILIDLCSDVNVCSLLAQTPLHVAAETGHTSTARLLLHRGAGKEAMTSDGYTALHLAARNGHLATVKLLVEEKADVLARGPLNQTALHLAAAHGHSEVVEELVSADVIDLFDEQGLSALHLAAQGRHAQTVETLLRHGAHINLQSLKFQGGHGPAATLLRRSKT
UniProt Q13557, sequence (whole entry, looked up): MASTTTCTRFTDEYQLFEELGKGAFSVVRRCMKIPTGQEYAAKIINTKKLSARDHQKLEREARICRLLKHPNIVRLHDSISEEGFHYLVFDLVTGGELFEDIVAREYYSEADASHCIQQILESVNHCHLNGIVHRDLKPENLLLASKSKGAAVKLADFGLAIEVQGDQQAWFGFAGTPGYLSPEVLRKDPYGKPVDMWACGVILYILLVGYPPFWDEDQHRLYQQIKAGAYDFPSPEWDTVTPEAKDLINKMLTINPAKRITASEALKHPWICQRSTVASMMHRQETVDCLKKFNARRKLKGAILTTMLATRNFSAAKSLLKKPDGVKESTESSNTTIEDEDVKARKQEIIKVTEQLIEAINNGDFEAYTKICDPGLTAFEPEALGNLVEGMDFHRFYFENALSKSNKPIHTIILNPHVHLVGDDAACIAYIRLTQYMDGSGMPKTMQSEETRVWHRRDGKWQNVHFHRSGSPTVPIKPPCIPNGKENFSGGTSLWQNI
UniProt Q15391, sequence (whole entry, looked up): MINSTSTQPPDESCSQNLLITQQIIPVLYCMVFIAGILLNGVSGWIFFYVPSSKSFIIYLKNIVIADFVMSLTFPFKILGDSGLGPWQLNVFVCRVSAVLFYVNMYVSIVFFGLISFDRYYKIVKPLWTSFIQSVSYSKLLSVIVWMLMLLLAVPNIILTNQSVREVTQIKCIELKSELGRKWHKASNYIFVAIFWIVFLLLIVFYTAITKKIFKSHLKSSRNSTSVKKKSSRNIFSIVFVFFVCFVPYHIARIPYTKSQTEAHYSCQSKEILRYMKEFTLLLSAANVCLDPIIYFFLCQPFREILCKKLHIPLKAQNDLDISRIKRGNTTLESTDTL
UniProt Q9UM73, sequence (whole entry, unmodified, looked up): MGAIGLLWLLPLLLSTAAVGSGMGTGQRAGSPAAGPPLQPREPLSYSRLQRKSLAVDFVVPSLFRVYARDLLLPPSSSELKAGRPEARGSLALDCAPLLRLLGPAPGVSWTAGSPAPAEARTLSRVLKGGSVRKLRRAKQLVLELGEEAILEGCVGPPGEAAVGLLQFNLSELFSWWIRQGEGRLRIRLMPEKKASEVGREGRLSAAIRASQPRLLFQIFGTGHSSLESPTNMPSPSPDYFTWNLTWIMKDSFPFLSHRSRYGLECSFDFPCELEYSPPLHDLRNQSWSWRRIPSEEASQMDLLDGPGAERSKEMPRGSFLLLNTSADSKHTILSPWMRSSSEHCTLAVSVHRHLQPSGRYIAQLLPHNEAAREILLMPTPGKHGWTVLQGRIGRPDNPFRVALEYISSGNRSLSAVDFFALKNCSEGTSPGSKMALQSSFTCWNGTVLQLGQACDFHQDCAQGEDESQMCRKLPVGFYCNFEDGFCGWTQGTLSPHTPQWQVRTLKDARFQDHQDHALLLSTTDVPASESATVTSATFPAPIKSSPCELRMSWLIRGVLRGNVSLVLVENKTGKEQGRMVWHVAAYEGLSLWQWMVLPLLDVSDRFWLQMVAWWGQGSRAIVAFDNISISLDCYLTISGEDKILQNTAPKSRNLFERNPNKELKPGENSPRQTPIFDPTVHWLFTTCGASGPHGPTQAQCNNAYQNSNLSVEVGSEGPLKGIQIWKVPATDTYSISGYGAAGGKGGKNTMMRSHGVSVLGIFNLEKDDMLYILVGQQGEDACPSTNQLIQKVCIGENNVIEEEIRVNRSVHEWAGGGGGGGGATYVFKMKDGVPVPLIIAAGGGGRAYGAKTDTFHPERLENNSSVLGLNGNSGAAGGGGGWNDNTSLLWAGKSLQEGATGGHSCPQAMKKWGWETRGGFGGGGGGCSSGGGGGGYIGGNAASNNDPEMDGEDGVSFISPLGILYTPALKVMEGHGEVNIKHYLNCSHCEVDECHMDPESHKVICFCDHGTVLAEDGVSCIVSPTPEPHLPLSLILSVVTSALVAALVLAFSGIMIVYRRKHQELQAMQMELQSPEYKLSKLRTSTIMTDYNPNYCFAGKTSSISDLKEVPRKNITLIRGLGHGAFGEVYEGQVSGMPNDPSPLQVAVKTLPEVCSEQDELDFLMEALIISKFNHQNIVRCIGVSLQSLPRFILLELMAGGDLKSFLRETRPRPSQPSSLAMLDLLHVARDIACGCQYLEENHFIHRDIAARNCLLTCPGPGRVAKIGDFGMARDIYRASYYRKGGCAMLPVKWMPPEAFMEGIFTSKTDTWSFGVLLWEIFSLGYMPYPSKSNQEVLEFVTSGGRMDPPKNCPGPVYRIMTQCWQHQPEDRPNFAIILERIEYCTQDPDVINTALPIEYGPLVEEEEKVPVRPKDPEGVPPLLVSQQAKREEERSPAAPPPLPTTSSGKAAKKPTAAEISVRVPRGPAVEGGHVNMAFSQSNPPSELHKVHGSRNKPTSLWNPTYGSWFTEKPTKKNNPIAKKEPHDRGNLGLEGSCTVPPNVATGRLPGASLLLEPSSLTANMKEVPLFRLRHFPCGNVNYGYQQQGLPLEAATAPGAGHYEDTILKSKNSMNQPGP
UniProt O43293, sequence (whole entry, looked up): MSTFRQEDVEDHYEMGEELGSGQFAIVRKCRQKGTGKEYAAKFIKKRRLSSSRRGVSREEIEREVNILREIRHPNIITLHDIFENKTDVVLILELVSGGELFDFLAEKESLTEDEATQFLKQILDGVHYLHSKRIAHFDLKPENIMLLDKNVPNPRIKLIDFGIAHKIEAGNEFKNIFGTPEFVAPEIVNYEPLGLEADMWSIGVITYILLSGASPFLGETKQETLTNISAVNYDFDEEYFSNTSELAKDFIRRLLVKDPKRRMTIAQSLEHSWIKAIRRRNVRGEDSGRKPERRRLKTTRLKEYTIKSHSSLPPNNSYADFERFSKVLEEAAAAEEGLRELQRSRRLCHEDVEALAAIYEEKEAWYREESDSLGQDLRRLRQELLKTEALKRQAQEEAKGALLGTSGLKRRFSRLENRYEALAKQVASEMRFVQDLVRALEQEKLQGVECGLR
UniProt P49137, sequence (whole entry, looked up): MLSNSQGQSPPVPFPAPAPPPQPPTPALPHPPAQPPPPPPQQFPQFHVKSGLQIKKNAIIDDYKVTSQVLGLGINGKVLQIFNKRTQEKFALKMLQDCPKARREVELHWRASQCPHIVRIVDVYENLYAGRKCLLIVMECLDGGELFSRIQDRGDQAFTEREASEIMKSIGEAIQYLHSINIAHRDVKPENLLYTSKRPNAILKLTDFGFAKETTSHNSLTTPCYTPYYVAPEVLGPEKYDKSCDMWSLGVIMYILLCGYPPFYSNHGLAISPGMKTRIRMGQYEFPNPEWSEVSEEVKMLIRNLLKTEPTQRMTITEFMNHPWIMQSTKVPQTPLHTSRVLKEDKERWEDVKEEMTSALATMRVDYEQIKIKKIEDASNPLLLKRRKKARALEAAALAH
UniProt P47900, sequence (whole entry, looked up): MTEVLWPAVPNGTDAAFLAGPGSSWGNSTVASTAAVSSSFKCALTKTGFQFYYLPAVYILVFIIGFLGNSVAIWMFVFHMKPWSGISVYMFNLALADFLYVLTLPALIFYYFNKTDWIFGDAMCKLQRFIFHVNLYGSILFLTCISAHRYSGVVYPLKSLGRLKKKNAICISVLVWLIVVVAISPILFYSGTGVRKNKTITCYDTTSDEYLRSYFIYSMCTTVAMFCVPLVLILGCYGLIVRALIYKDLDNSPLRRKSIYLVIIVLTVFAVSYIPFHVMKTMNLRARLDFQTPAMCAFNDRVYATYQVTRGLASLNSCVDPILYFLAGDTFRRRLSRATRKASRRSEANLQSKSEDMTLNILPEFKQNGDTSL

Series 1 — read-out: enzyme activity; action: inhibitor; concentration: 10 µM
Target: Calcium/calmodulin-dependent protein kinase type II subunit alpha (CAMK2A, Homo sapiens, UniProt Q9UQM7)
UniProt Q9UQM7, sequence (whole entry, looked up): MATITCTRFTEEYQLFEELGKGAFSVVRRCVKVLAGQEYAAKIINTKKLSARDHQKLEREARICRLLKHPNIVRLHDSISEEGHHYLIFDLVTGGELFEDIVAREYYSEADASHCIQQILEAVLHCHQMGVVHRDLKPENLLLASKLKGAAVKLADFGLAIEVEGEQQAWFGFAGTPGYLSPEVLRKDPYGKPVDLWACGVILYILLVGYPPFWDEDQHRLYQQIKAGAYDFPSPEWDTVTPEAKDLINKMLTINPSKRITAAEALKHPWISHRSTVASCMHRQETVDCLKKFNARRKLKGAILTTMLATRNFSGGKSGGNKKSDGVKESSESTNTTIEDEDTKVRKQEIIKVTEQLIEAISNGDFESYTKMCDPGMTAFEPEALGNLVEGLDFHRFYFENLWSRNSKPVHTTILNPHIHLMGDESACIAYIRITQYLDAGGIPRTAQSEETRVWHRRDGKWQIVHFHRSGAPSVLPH
`O=C(O)COCCN1CCN(C(c2ccccc2)c2ccc(Cl)cc2)CC1` (centres unmarked) has an inhibition of -1%.
With `C/C(=C/C(=O)O)C(=O)O` the inhibition was -6%.
`CN(C)CCCC1(c2ccc(F)cc2)OCc2cc(C#N)ccc21` (centres unmarked) has an inhibition of -2%.
`O=C(O)/C=C/c1ccccc1O` has an inhibition of -25%.
For `C[N+]1(C)CCC[C@H]1C(=O)O`, the inhibition was 29%.
The inhibition of `COc1cc(CCC(=O)O)ccc1O` is reported as -18%.
The inhibition of `COc1ccc(/C=C\c2cc(OC)c(OC)c(OC)c2)cc1OP(=O)(O)O` is reported as -28%.
For `NCCCNCCCCNCCCN`, the inhibition was 10%.

Series 2 — technique: PRP chromatography estimate; medium: 1,9-decadiene/PBS; pH: 7.4
For `CC(C)C[C@@H]1NC(=O)[C@H](CC(C)C)NC(=O)[C@@H](C(C)C)NC(=O)[C@H](C(C)C)NC(=O)[C@H](C)NC(=O)[C@@H](CC(C)C)NC(=O)[C@H](C)NC1=O`, the logD was -1.31.
`CC(C)C[C@@H]1NC(=O)[C@H](Cc2cscn2)NC(=O)[C@H](CCC(=O)N2CCCC2)NC(=O)[C@H](C)NC(=O)[C@@H](Cc2cscn2)NC(=O)[C@H](CC(C)C)NC(=O)[C@@H](CC(C)C)NC1=O` has a logD of -2.38.
`CC(C)C[C@@H]1NC(=O)[C@H](CC(C)C)NC(=O)[C@@H](CC(C)C)NC(=O)[C@H](C(C)C)NC(=O)[C@H](C(C)C)NC(=O)[C@H](C)NC(=O)[C@H](C)NC1=O` has a logD of -1.3.
`CCC[C@H]1NC(=O)CSC[C@@H](C(=O)OCC)N(C)C(=O)[C@H](CC(C)C)NC(=O)[C@H](C)N(C)C(=O)[C@H](CC(C)C)NC(=O)[C@H](C)N(C)C(=O)[C@@H]2CCCN2C(=O)[C@@H](CC(C)C)NC(=O)CN(C)C1=O` has a logD of -0.501.
With `CC(C)C[C@@H]1NC(=O)[C@H](C)NC(=O)[C@H](Cc2cscn2)NC(=O)[C@@H](CC(C)C)NC(=O)[C@@H](CCC(=O)N2CCCC2)NC(=O)[C@H](CC(C)C)NC(=O)[C@@H](CC(C)C)NC1=O` the logD was -1.02.
With `CC(C)C[C@@H]1NC(=O)[C@H](Cc2cscn2)NC(=O)[C@@H](CC(C)C)NC(=O)[C@H](CC(C)C)NC(=O)[C@@H](CCC(=O)N2CCCC2)NC(=O)[C@H](CC(C)C)NC(=O)[C@@H](CC(C)C)NC1=O` the logD was 0.18.
`CC(C)C[C@@H]1NC(=O)[C@@H](C)NC(=O)[C@H](CCC(=O)N2CCCC2)NC(=O)[C@@H](C(C)C)NC(=O)[C@H](C)NC(=O)[C@H](CC(C)C)NC(=O)[C@@H](CC(C)C)NC1=O` has a logD of -2.42.
The logD of `CC(C)C[C@@H]1NC(=O)[C@H](C)NC(=O)[C@@H](CC(C)C)NC(=O)[C@H](CC(C)C)NC(=O)[C@@H](Cc2cscn2)NC(=O)[C@H](CC(C)C)NC(=O)[C@@H](CC(C)C)NC1=O` is reported as -0.141.

Series 3 — SMILES: FC(F)(F)c1ccc2c(c1)nc(-c1cccnc1)n2C1CC1; read-out: cell-free assay; technique: competition with immobilised ligand; concentration: 1 µM
It gave 100% for remaining binding (FLT3 (Homo sapiens, UniProt P36888, ITD)).
It gave 100% for remaining binding (CAMK2D (Homo sapiens, UniProt Q13557)).
It gave 100% for remaining binding (Tyrosine-protein kinase JAK3, JH1 (JAK3, Homo sapiens, UniProt P52333)).
For CDK2 (Homo sapiens, UniProt P24941): remaining binding read 100%.
It gave 100% for remaining binding (ALK (Homo sapiens, UniProt Q9UM73, C1156Y)).
CAMK4 (Homo sapiens, UniProt Q16566) — remaining binding: 100%.
DAPK3 (Homo sapiens, UniProt O43293) — remaining binding: 100%.
It gave 100% for remaining binding (EGFR (Homo sapiens, UniProt P00533, L858R/T790M)).
It gave 100% for remaining binding (MAPKAPK2 (Homo sapiens, UniProt P49137)).
For TNNI3K (Homo sapiens, UniProt Q59H18): remaining binding read 100%.
It gave 71% for remaining binding (Ribosomal protein S6 kinase alpha-3, C-terminal kinase domain (RPS6KA3, Homo sapiens, UniProt P51812)).
The remaining binding was 97% (MAPKAPK5 (Homo sapiens, UniProt Q8IW41)).
LTK (Homo sapiens, UniProt P29376) — remaining binding: 100%.
The remaining binding was 100% (Cyclin-dependent kinase 4, with cyclin D3 (CDK4, Homo sapiens, UniProt P11802)).
WNK4 (Homo sapiens, UniProt Q96J92) — remaining binding: 100%.
The remaining binding was 100% (SGK2 (Homo sapiens, UniProt Q9HBY8)).
The remaining binding was 100% (INSRR (Homo sapiens, UniProt P14616)).
The remaining binding was 100% (ERBB4 (Homo sapiens, UniProt Q15303)).
CSNK1E (Homo sapiens, UniProt P49674) — remaining binding: 100%.
It gave 95% for remaining binding (RIPK4 (Homo sapiens, UniProt P57078)).
It gave 100% for remaining binding (FLT1 (Homo sapiens, UniProt P17948)).
Tyrosine-protein kinase ABL1, phosphorylated (ABL1, Homo sapiens, UniProt P00519, Y253F) — remaining binding: 100%.
For PIP4K2B (Homo sapiens, UniProt P78356): remaining binding read 82%.
It gave 93% for remaining binding (RIOK3 (Homo sapiens, UniProt O14730)).
The remaining binding was 100% (CLK2 (Homo sapiens, UniProt P49760)).

Series 4 — Structure (SMILES): NC(N)=NC(=O)c1nc(Cl)c(N2CCCCCC2)nc1N; read-out: β-arrestin recruitment; action: agonist; technique: PRESTO-Tango; concentration: 10 µM; baseline: untreated
For MC5R (Homo sapiens, UniProt P33032): “fold over basal” read 0.83.
For PTH1R (Homo sapiens, UniProt Q03431): “fold over basal” read 0.49.
For P2Y purinoceptor 14 (P2RY14, Homo sapiens, UniProt Q15391): “fold over basal” read 1.31.
VIPR2 (Homo sapiens, UniProt P41587) — “fold over basal”: 0.66 fold.
The “fold over basal” was 0.45 (P2Y purinoceptor 1 (P2RY1, Homo sapiens, UniProt P47900)).
It gave 0.89 for “fold over basal” (Adhesion G protein-coupled receptor E5 (Homo sapiens, UniProt P48960)).
For F2R (Homo sapiens, UniProt P25116): “fold over basal” read 0.56.
The “fold over basal” was 0.85 (GPR65 (Homo sapiens, UniProt Q8IYL9)).
Nociceptin receptor (OPRL1, Homo sapiens, UniProt P41146) — “fold over basal”: 0.48.

Repeated from above (series 4):
The “fold over basal” was 0.45 (P2Y purinoceptor 1 (P2RY1, Homo sapiens, UniProt P47900)).
It gave 0.89 for “fold over basal” (Adhesion G protein-coupled receptor E5 (Homo sapiens, UniProt P48960)).
For F2R (Homo sapiens, UniProt P25116): “fold over basal” read 0.56.
